# Published values pooled from the literature.
# Compare with care: the assays were run in different laboratories. ± gives the spread as reported.
SMILES,cell line,test,test system,conditions,scale,endpoint,result
CCNC(=S)N/N=C(\C)c1ccccn1,Vero,"cell growth or viability, SRB",,"100 µg/mL, 48 h",,inhibition,63.6%
CN1CCN(C(=O)N(CCCCCCC(=O)NO)c2ccc(-c3ccc4cnn(C)c4c3)cc2)CC1,MM1.S,"immunoblot, item: DACT1 and DACT2",,"concentration not given, 24 h",,protein level,no effect
COc1ccc([C@@H]2CC(=O)c3c(O)cc(O[C@@H]4O[C@H](CO[C@@H]5O[C@@H](C)[C@H](O)[C@@H](O)[C@H]5O)[C@@H](O)[C@H](O)[C@H]4O)cc3O2)cc1O,A549,"cell migration, scratch",,"150 µg/mL, 24 h",,gap closure,4.65 ± 0.45%
O=[N+]([O-])[O-].[NH3+][Pt-2]1([NH3+])[O]C(C(F)(F)F)=CC(c2ccccc2)=[O+]1 (stereo not shown),NCI-60 CNS cancer lines,SRB,,"10 µM, 48 h",baseline: untreated,mean growth,64.5%
CC(=O)OC[C@H]1O[C@@H](Sc2sc(C(=O)c3ccc(C)cc3)c(N)c2-c2nc3ccccc3s2)[C@H](OC(C)=O)[C@@H](OC(C)=O)[C@@H]1OC(C)=O,SK-MEL-2,SRB,,"10 µM, 48 h",baseline: untreated,growth,93.6%
CCC(=C(c1ccc(Cl)cc1)c1ccc(OCCCN(C)C)cc1)c1ccc(OC)cc1,BT-549,"cell growth or viability, SRB",,,,GI50,1.13 µM
CCc1noc(CC)c1C(=O)O[C@H]1C(C)=C[C@]23C(=O)[C@@H](C=C(CO)[C@@H](O)[C@]12O)[C@H]1[C@@H](C[C@H]3C)C1(C)C,human primary epidermal keratinocytes,CyQUANT DNA content,,"above 100 nM, 72 h",baseline: vehicle,cell number,20%
COc1cc(CNC(=O)C[C@H](C)CCC=C(C)C)ccc1OCc1cn(-c2ccc(C#N)cc2)nn1,SF-539 CNS cancer cells,SRB,,"10 µM, 48 h",,growth percent,59.7%
NC(=O)C[C@H]1CCc2sc3ncnc(O[C@H]4CC[C@H](N5CCOCC5)CC4)c3c21,"GCB DLBCL lines, wild-type MYD88",,,"concentration not given, 4 d",,viability,no effect
CC(=O)OC[C@H]1O[C@@H](Sc2sc(C(=O)c3ccc(Br)cc3)c(N)c2-c2nc3ccccc3s2)[C@H](OC(C)=O)[C@@H](OC(C)=O)[C@H]1OC(C)=O,Hs-578T,SRB,,"10 µM, 48 h",baseline: untreated,growth,95.4%
COc1cc(O)c(-c2c(O)cc(OC)c3c2ccc2cc(O)ccc23)c2ccc3ccccc3c12,BV-2,"ELISA, item: TNF-α",,"concentration not given, pretreatment, added: LPS",,cytokine release,decreased
CCNS(=O)(=O)c1ccc(COc2ccc3nc4ccc(=O)cc-4oc3c2)cc1,BT-549,,,1 µM,,cell proliferation,no effect
C[N+]1(CC(=O)OC2CCCCCCCCCCC2)CCCCC1,LNCaP expressing AR-V7,"cell viability, CellTiter-Blue",,96 h,,ED50,6.3 µM
CN1CCCNC(=O)c2cccc(c2)C(=O)NCCCN(C)CCCNc2cccc3c2C(=O)c2cccc(c2C3=O)NCCC1,SAS,RNA-Seq,,"1 and 5 µM, 6 and 24 h, all treatment conditions combined",,differentially expressed genes share,3.5%
CC/C=C\C/C=C\C/C=C\C/C=C\C/C=C\C/C=C\CCC(=O)Nc1ccn(C2OC(CO)C(O)C2(F)F)c(=O)n1 (stereo not shown),IGROV-1,NCI60 screen,,,,TGI,22.5 µM
Cn1cnnc1Sc1c2c(c(C#N)c3nc4ccccc4n13)CCCC2,Ero1α/β-null mouse platelets,,,"2.5 µM, added: thrombin 0.015 U/mL",,platelet aggregation,no effect
COc1cc(CNC(=O)C[C@H](C)CCC=C(C)C)ccc1OCc1cn(-c2ccc(F)cc2)nn1,U-251 CNS cancer cells,SRB,,"10 µM, 48 h",,growth percent,65.4%
CC(=O)Oc1ccccc1C(=O)[O][Pt]([NH2])([NH2])([Cl])([Cl])[O]C(=O)C(Cl)Cl,six human cancer cell lines,MTT,,,baseline: cisplatin over compound,mean IC50 ratio,~18
COc1cc(CNC(=O)C[C@H](C)CCC=C(C)C)ccc1OCc1cn(-c2ccc(Cl)cc2Cl)nn1,RPMI-8226 leukaemia cells,SRB,,"10 µM, 48 h",,growth percent,90.7%
O=C1NCC(Cc2ccccc2)N(CC2CCCN2CC(CC2CCCCC2)N2CC(Cc3ccc(O)cc3)N(CCc3ccccc3)C(=O)C2=O)C1=O (stereo not shown),WM 266-4,CYTO-ID staining,,"100 µM, 24 h",,autophagic cells,57%
COc1cc(CNC(=O)C[C@H](C)CCC=C(C)C)ccc1OCc1cn(-c2ccc([N+](=O)[O-])cc2)nn1,SF-539 CNS cancer cells,SRB,,"10 µM, 48 h",,growth percent,43.1%
N#Cc1cccc(-c2ccc(=O)n(Cc3cccc(-c4ncc(OCC5CCN(CC(=O)N6CCN(c7ccc8c(c7)C(=O)N(C7CCC(=O)NC7=O)C8=O)CC6)CC5)cn4)c3)n2)c1 (stereo not shown),EBC-1,annexin V flow cytometry,,"10 nM, 48 h",,apoptotic cells,41.7%
COc1cc(C(=O)c2[nH]c(N)nc2-c2cccs2)cc(OC)c1OC,HeLa cells,Hoechst staining,,75 nM,,mitotic index,12 ± 2.3
COc1cc(CNC(=O)C[C@H](C)CCC=C(C)C)ccc1OCc1cn(-c2ccccc2)nn1,RPMI-8226 leukaemia cells,SRB,,"10 µM, 48 h",,growth percent,37.9%
O=C(Nc1ccc(C(F)(F)F)cc1Cl)c1cc(Cl)ccc1O,C4-2B MDVR cells,ELISA,,"1 µM, 48 h, FBS conditions",,PSA level,decreased
COc1cc(CNC(=O)C[C@H](C)CCC=C(C)C)ccc1OCc1cn(-c2ccccc2Cl)nn1,SK-MEL-2 melanoma cells,SRB,,"10 µM, 48 h",,growth percent,53.3%
COc1cc2c(cc1C)NC(=O)C2=Cc1c(Cl)[nH]c2c1ccc1ccccc12,breast cancer subpanel of NCI-60,,,48 h,,TGI,4.37 µM
CCN(CC)CCNC(=S)Nc1ccc2nc(N3CCN(CC)CC3)cc(C)c2c1,BCR-ABL1+ BRCA1-deficient 32Dcl3,item: GFP-RAD52 foci,,"2.5 µM, added: cisplatin",,cells without foci,71.9 ± 4.1%
COC(=O)c1ccccc1-c1c2ccc(=O)cc-2oc2cc(OCCCCCCCC[P+](c3ccccc3)(c3ccccc3)c3ccccc3)ccc12,HeLa cells,confocal microscopy,mitochondria,100 nM,baseline: MitoTracker Deep Red,fluorescence ratio,0.521 ± 0.042
COc1cc(CNC(=O)C[C@H](C)CCC=C(C)C)ccc1OCc1cn(-c2ccc(Cl)c(Cl)c2)nn1,CCRF-CEM,SRB,,"10 µM, 48 h",,growth,84.5%
CCc1nnc(NS(=O)(=O)c2ccc(NC(=S)NC(=O)/C=C/c3ccc(F)cc3)cc2)s1,SK-N-AS EP2 knock-out,,,10 µM,,neurosphere size,no effect
Cc1nn(-c2ccc(S(=O)(=O)N[C@H](CO)CC(C)C)cc2)c2nn3nnnc3nc12,HT-29,AO/EB staining,,"0.5 µM, 24 h",,necrotic cells,21 ± 1.41%
COc1ccc(C2=Nn3c(NN=C4C(=O)N(C)c5ccc(Br)cc54)nnc3SC2)cc1,SF-539,"cell growth or viability, SRB",,10 µM,,inhibition,18%
O=C(CCCCC1SCC2NC(=O)NC21)NCCCCC(CN1CCCC1CN1C(=O)C(=O)NCC1Cc1ccccc1)N1CC(Cc2ccc(O)cc2)N(CCc2ccccc2)C(=O)C1=O (stereo not shown),WM 266-4,CellTiter-Glo,,"100 µM, 72 h",,maximal viability inhibition,37%
CCCCCCCCCCCC(=O)OC[C@H]1O[C@@H](n2cnc(N)nc2=O)C[C@@H]1OC(=O)CCCCCCCCCCC,HEL,CyQuant,,72 h,,lowest concentration reducing viability,> 125 nM
O=Cc1c(O)ccc2ccccc12,HUVEC,"qPCR, item: KRIT1, HEG1",,"75 µM, 4 h",,mRNA level,no effect
COc1cc(CNC(=O)C[C@H](C)CCC=C(C)C)ccc1OCc1cn(-c2cccc(Cl)c2)nn1,RPMI-8226 leukaemia cells,SRB,,"10 µM, 48 h",,growth percent,56.3%
CC[C@@]12CC(O)c3[nH]c4ccccc4c3CCN(C[C@H]3O[C@H]31)C2 (stereo partly shown),BV-2,NO production,,"25 µM, 1 h, 24 h stimulation, added: LPS 800 ng/mL",baseline: LPS control,inhibition,50 ± 4.7%
CCCC(CCC)C(=O)[O][Pt]([NH2])([NH2])([Cl])([Cl])[O]C(=O)c1ccccc1OC(C)=O,C13 and 2008,"cytotoxicity, MTT",,,baseline: IC50 C13 over IC50 2008,resistance factor,1.1
O=C1OCC2=C1C(c1cccc(Br)c1)C1=C(N2)C(=O)c2ccccc2C1=O (stereo not shown),SK-LU-1 cells,annexin V/PI,,"0.08 µM, 24 h",,necrotic cells,1.75%

# For quick reference, copied from above:
SMILES,cell line,test,test system,conditions,scale,endpoint,result
CCCCCCCCCCCC(=O)OC[C@H]1O[C@@H](n2cnc(N)nc2=O)C[C@@H]1OC(=O)CCCCCCCCCCC,HEL,CyQuant,,72 h,,lowest concentration reducing viability,> 125 nM
CC(=O)Oc1ccccc1C(=O)[O][Pt]([NH2])([NH2])([Cl])([Cl])[O]C(=O)C(Cl)Cl,six human cancer cell lines,MTT,,,baseline: cisplatin over compound,mean IC50 ratio,~18
O=C1NCC(Cc2ccccc2)N(CC2CCCN2CC(CC2CCCCC2)N2CC(Cc3ccc(O)cc3)N(CCc3ccccc3)C(=O)C2=O)C1=O (stereo not shown),WM 266-4,CYTO-ID staining,,"100 µM, 24 h",,autophagic cells,57%
CCc1noc(CC)c1C(=O)O[C@H]1C(C)=C[C@]23C(=O)[C@@H](C=C(CO)[C@@H](O)[C@]12O)[C@H]1[C@@H](C[C@H]3C)C1(C)C,human primary epidermal keratinocytes,CyQUANT DNA content,,"above 100 nM, 72 h",baseline: vehicle,cell number,20%
